# Published values collected from several papers.
# Compare with care: the assays were run in different laboratories.
# Cell line: K562
Structure (SMILES),test,conditions,IC50
COc1ccc(/C=C/C(=O)c2c(O)cc(OC)cc2OC)cc1,"NF-κB activity, inhibitor, luciferase",TNF-stimulated,> 200 µM
COc1ccc(/N=N/C(=S)N2CCCC2)cc1,"cell growth or viability, resazurin",48 h,7 µM
CCCCCCCCCCCCCCCC(=O)OCCN1CCN(c2cc(Nc3ncc(C(=O)Nc4c(C)cccc4Cl)s3)nc(C)n2)CC1,"cell growth or viability, MTT",72 h,< 5.12e-05 µM
COc1ccc(CN2C[C@H](O)[C@H](O)[C@@H]2CO)cc1,"cell growth or viability, MTS",72 h,192 µM
COc1ccc(/C=C/C(=O)c2ccccc2)cc1OC,cell viability,,38 µM
Cc1ccc(C(=O)C2Sc3nnc(-n4nc(C)cc4C)n3NC2c2ccc(Cl)cc2)cc1 (racemic),"cell growth or viability, imaging",72 h,> 100 µM
O=C(CCc1ccc(O)cc1)c1c(O)cc(O)cc1OC1OC(CO)C(O)C(O)C1O (stereo not drawn),"NF-κB activity, inhibitor, luciferase",TNF-stimulated,> 200 µM
COc1cc2c(NC3CCN(C(C)C)CC3)nc(N3CCC(F)(F)CC3)nc2cc1OCCCN1CCCC1,"cell growth or viability, CCK-8",7 days,> 10 µM
O=C(/C=C/c1ccccc1)c1ccc(O)cc1,"NF-κB activity, inhibitor, luciferase",TNF-stimulated,28 µM
CCCCn1cc(C(=O)O)c(=O)c2cc(F)c(Nc3cc(OC)c(OC)c(OC)c3)c(N)c21,"cell growth or viability, SRB",72 h,8.67 µg/mL
O=C1c2ccc(O)cc2OC1(O)Cc1ccc(O)c(O)c1 (stereo not drawn),"cell growth or viability, MTT",72 h,129 µM
COc1ccc(CN2C(=O)C(=O)c3cc(NC(C)=O)ccc32)cc1,"cell growth or viability, MTT",48 h,0.29 µM
CCC(C)n1c(C(=O)Nc2cnc(C(=O)NC)n(CC(C)C)c2=O)ncc(NC(=O)c2ncc(NC(=O)c3ccccc3)c(=O)n2Cc2ccc(OC)cc2)c1=O (stereo not drawn),"cell growth or viability, ATP luminescence",72 h,1.3 µM
CC(C)=CCc1cc(-c2coc3cc(O)c(CC=C(C)C)c(O)c3c2=O)ccc1O,"cell growth or viability, MTT",,53.7 µM
O=C(CCc1ccc(O)cc1)c1c(O)cc(O)cc1O,"NF-κB activity, inhibitor, luciferase",TNF-stimulated,41 µM
COc1ccc(C[C@H]2COC(=O)[C@@H]2Cc2ccc(OCC(=O)Nc3ccc(C(=O)NO)cc3)c(OC)c2)cc1OC,"cell growth or viability, CCK-8",48 h,> 5 µM
Cc1nc(Nc2ncc(C(=O)Nc3c(C)cccc3Cl)s2)cc(N2CCN(C(=O)CCOCCNC(=O)CN)CC2)n1,"cell growth or viability, CCK-8",,0.021 µM
Cc1nc(Nc2ncc(C(=O)Nc3c(C)cccc3Cl)s2)cc(N2CCN(CCOC(=O)[C@@H](N)CCCNC(=N)N)CC2)n1,"cell growth or viability, MTT",72 h,< 5.12e-05 µM
COc1ccc(/N=N/C(=S)N2CCCCC2)cc1,"cell growth or viability, resazurin",48 h,25.5 µM
CC(C)(C(=O)O)C1(O)CCCCC1,cell growth or viability,72 h,> 200 µM
CCCCn1cc(C(=O)O)c(=O)c2cc(F)c(Nc3ccc(OC)cc3OC)c(N)c21,"cell growth or viability, SRB",72 h,4.01 µg/mL
CC(C)=CCCC(C)C1CCC2(C)C3=C(CCC12C)C1(C)CCC(=O)C(C)(C)C1CC3 (stereo not drawn),"cell growth or viability, SRB",,13.6 µM
COc1ccc(CCC(=O)c2c(O)cc(OC)cc2O)cc1,cell viability,,31 µM
OC[C@H]1[C@@H](O)[C@@H](O)CN1CCc1ccccc1,"cell growth or viability, MTS",72 h,189 µM
CC(C)=CCc1c2c(c(O)c3c(=O)c(-c4ccc(O)cc4)coc13)CC(C(C)(C)O)O2 (stereo not drawn),"cell growth or viability, MTT",,15.1 µM
O=C(/C=C/c1ccc(O)c(O)c1)c1ccc(O)cc1O,"NF-κB activity, inhibitor, luciferase",TNF-stimulated,38 µM
CO[C@H]1C(=O)c2ccc(O)cc2O[C@@H]1c1ccc(O)c(O)c1 (relative stereo),"cell growth or viability, MTT",72 h,74.4 µM
C(=C/c1ccccc1)/c1ccccc1,"cell growth or viability, ATP luminescence",24 h,53 µM
O=C(/C=C/c1ccc(O)c(O)c1)c1c(O)cc(O)cc1O,"NF-κB activity, inhibitor, luciferase",TNF-stimulated,> 200 µM
COc1ccc(C[C@H]2COC(=O)[C@@H]2Cc2ccc(OCCCCCCCC(=O)NO)c(OC)c2)cc1OC,"cell growth or viability, CCK-8",48 h,1.82 µM

# Some of these lines once more:
Structure (SMILES),test,conditions,IC50
CCCCCCCCCCCCCCCC(=O)OCCN1CCN(c2cc(Nc3ncc(C(=O)Nc4c(C)cccc4Cl)s3)nc(C)n2)CC1,"cell growth or viability, MTT",72 h,< 5.12e-05 µM
C(=C/c1ccccc1)/c1ccccc1,"cell growth or viability, ATP luminescence",24 h,53 µM
